Results collected from several papers.
Numbered parts are unrelated; each lists some results of a single study.

Study 1
Target: Interferon regulatory factor 7, full length, phosphomimetic (IRF7, Homo sapiens, UniProt Q92985, residues 1-503, S471D/S472D/S475D/S476D/S477D/S483D/S484D/S487D)
Method: protein-binding microarray
Form: double-stranded DNA, one strand shown
Sample: in vitro
Concentration: 2200 nM top
Setting: 60-bp whole probe
Together with: salmon DNA 0.4 mg/ml
Relative to: random background probes
Direction: higher = stronger binding
Constant ends, left off below: GCCTAGCAC … GTCTTGATTCGCTTGACGCTGCTG
Target sequence (chain): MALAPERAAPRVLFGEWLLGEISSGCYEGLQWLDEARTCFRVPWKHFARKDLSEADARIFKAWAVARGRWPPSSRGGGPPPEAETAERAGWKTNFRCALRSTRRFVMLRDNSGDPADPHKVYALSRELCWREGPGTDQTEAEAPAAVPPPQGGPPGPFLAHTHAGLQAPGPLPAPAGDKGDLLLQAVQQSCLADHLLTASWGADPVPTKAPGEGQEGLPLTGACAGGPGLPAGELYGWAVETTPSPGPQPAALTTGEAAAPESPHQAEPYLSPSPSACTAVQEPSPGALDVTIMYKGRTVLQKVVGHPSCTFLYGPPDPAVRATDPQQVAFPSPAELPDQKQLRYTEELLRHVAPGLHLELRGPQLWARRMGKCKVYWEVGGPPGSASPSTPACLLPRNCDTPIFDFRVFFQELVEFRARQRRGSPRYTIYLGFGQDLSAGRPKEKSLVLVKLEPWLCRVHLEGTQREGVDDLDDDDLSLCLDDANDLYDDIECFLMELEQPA
Strand | fitted relative affinity
TCATGTTTAAGAATGTTACTGTGCTAG | 0.559 z-score
TTAGTACTGGGGTATCGATTAGTGCTA | 0.228 z-score
TGTGCTTTCCTGATGGTTTTGTGCTAG | 2.42 z-score
GACGATCTCAGTATCGTGACGTGCTAG | 0.174 z-score
CCTCTGCTCCTCTTTTTTTGGGTGCTA | 1.56 z-score
TTAGATTTCGGGTATCGATTGGTGCTA | 3.12 z-score
TTAGGTCTCCTTTTCCTTTTGTGCTAG | 3.17 z-score
TTAGGTTTCGACACTTGGTTAGTGCTA | 2.24 z-score

Study 2
Target: Replicase polyprotein 1ab, nsp13 helicase (rep, Severe acute respiratory syndrome coronavirus 2, UniProt P0DTD1)
Action: inhibitor
Concentration: 20 µM
Compound | inhibition
CC1(C)C[C@@H]1C(=O)N/C(=C\CCCCSC[C@H](N)C(=O)O)C(=O)O | -4.15%
COc1ccc(CCN2CCN(CCCc3ccccc3)CC2)cc1OC | 5.96%
COc1ccccc1CN[C@H]1CCCN[C@H]1c1ccccc1 | 2.47%
N#C/C(=C1/SC[C@@H](c2ccc(Cl)cc2Cl)S1)n1ccnc1 | 0.32%
C=CCc1cc(OC)c(O)c(C(=O)NCCO)c1 | 3.08%
COc1cc2nc(N3CCN(C(=O)c4ccco4)CC3)nc(N)c2cc1OC | 6.84%
N=C(N)c1ccc(-c2ccc(-c3ccc(C(=N)N)cc3)o2)cc1 | 57.6%
Cc1[nH]c(/C=C2\C(=O)Nc3ccc(S(=O)(=O)Cc4c(Cl)cccc4Cl)cc32)c(C)c1C(=O)N1CCC[C@@H]1CN1CCCC1 | 6.5%
N[C@@]1(C(=O)O)CC[C@@H](C(=O)O)C1 | 3.25%
COc1ccc(CN(CCN(C)C)c2ncccn2)cc1 | 1.27%
Cn1c(=O)cc(N2CCC[C@@H](N)C2)n(Cc2cc(F)ccc2C#N)c1=O | 5.4%
C[C@@H]1COCCN1c1cc(C2(S(C)(=O)=O)CC2)nc(-c2cccc3[nH]ccc23)n1 | 6.58%
NCC(O)c1ccc(O)cc1 (stereo not drawn) | -6.03%
O=C(NCc1ccccc1)c1csc(Nc2ccncn2)n1 | 3.58%
O=C(O)c1cc(=O)[nH]c(=O)[nH]1 | 6.95%
COc1ccc(N(C(=O)Oc2c(C)cccc2C)c2ccnc(Nc3ccc(N4CCN(C)CC4)cc3)n2)c(OC)c1 | 7.33%
CCC(COC(=O)c1cc(OC)c(OC)c(OC)c1)(c1ccccc1)N(C)C (stereo not drawn) | 3.63%
CCN1C[C@]2(OC(=O)c3ccccc3NC(C)=O)CC[C@H](OC)[C@@]34[C@@H]2C[C@@H]([C@@H]13)[C@@]1(O)C[C@H](OC)[C@H]2C[C@@H]4[C@]1(O)[C@H]2OC | 5.03%
NCCCS(=O)(=O)O | 2.63%
C[C@H](N)C(=O)N[C@@H](CCC(N)=O)C(=O)O | -2.77%
O=C(O)[C@H]1O[C@@H](Oc2cc3oc(-c4ccccc4)cc(=O)c3c(O)c2O)[C@H](O)[C@@H](O)[C@@H]1O | 3.11%
CCc1c2c(nc3ccc(OC(=O)N4CCC(N5CCCCC5)CC4)cc13)-c1cc3c(c(=O)n1C2)COC(=O)[C@]3(O)CC | 3.63%
C1COC(NC(C2CC2)C2CC2)=N1 | 5.75%
FC(F)(F)C(F)(F)C(F)(F)N(C(F)(F)C(F)(F)C(F)(F)F)C(F)(F)C(F)(F)C(F)(F)F | 1.81%
CC(=O)C1=C(O)[C@@H]2[C@H]3c4c[nH]c5cccc(c45)C[C@H]3C(C)(C)N2C1=O | 2.47%

Study 3
Target: Sal-like protein 4, full length isoform B (SALL4, Homo sapiens, UniProt Q9UJQ4-2, residues 1-616)
Method: universal PBM
Form: double-stranded DNA, one strand shown
Sample: in vitro
Concentration: not given
Setting: 8-mer, flanks averaged, mean of replicates
Direction: higher = stronger binding
Strand | E-score
GAATAGTC | -0.0427
ATCAACGC | 0.111
GAGGTCAC | -0.169
GCTGCATA | 0.0556
CCTACGTC | -0.192
ATGTTTCA | 0.283
TACCCTAA | -0.016
ACGGAGCT | -0.182

Study 4
Target: Histone acetyltransferase KAT6A, winged helix 1, GST fusion (KAT6A, Homo sapiens, UniProt Q92794, residues 1-85)
Method: protein binding microarray
Form: double-stranded DNA, one strand shown
Sample: in vitro
Concentration: not given
Setting: 8-mer, flanks averaged, mean of 2 arrays, mostly near background
Relative to: not given
Direction: higher = stronger binding
Construct (chain): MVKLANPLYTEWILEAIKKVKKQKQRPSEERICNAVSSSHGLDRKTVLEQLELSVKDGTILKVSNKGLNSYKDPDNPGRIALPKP
Strand | E-score
CAAAAACG | 0.00424
ATGGTCTC | -0.145
GGTGGTGA | 0.0604
AGCTTTGA | -0.0905
AGACTGGG | -0.163
CGATCGTC | 0.194
CGTCCATC | 0.0131
TTCACGAA | -0.0327

Other studies, line by line
Compound | cell line | test | system | setting | scale | quantity | result
N#Cc1ccc(C(c2ccc(C#N)cc2)n2cncn2)cc1 | HEK-293T/ACE2 | – | – | concentration not given, 16 (unit not given) | relative to: vehicle | viability | 101%
CN1C(=O)CCS(=O)(=O)C1c1ccc(Cl)cc1 (stereo not drawn) | HEK-293T | pseudovirus infection, FDA-approved drug library screen | VSV pseudotyped with SARS-CoV-2 spike | 10 µM, 16 h | relative to: vehicle-treated | GFP-positive cells | 56.1%

Some of these lines once more (study 2):
Compound | inhibition
C[C@H](N)C(=O)N[C@@H](CCC(N)=O)C(=O)O | -2.77%
COc1cc2nc(N3CCN(C(=O)c4ccco4)CC3)nc(N)c2cc1OC | 6.84%
N[C@@]1(C(=O)O)CC[C@@H](C(=O)O)C1 | 3.25%
O=C(O)[C@H]1O[C@@H](Oc2cc3oc(-c4ccccc4)cc(=O)c3c(O)c2O)[C@H](O)[C@@H](O)[C@@H]1O | 3.11%
FC(F)(F)C(F)(F)C(F)(F)N(C(F)(F)C(F)(F)C(F)(F)F)C(F)(F)C(F)(F)C(F)(F)F | 1.81%
CC(=O)C1=C(O)[C@@H]2[C@H]3c4c[nH]c5cccc(c45)C[C@H]3C(C)(C)N2C1=O | 2.47%
C1COC(NC(C2CC2)C2CC2)=N1 | 5.75%
CCc1c2c(nc3ccc(OC(=O)N4CCC(N5CCCCC5)CC4)cc13)-c1cc3c(c(=O)n1C2)COC(=O)[C@]3(O)CC | 3.63%
